Published values collected from several papers.
Compare with care: the assays were run in different laboratories. “And” joins repeats or separate records; there may be more than shown. Numbers after ± are the reported error.

| SMILES | assay | system | conditions | scale | quantity | result |
| --- | --- | --- | --- | --- | --- | --- |
| CC(C)C[C@H](NC(=O)[C@H](CCCNC(=N)N)NC(=O)[C@H](Cc1ccccc1)NC(=O)[C@H](Cc1ccccc1)NC(=O)[C@@H](NC(=O)[C@H](COP(=O)(O)O)NC(=O)[C@@H](N)COP(=O)(O)O)[C@@H](C)O)C(=O)N[C@@H](Cc1ccccc1)C(=O)N[C@@H](CC(N)=O)C(=O)N[C@@H](CCCNC(=N)N)C(=O)N[C@@H](C)C(=O)N[C@@H](CCCCN)C(=O)N[C@@H](CCCNC(=N)N)C(=O)N[C@@H](Cc1c[nH]cn1)C(=O)N[C@@H](Cc1c[nH]cn1)C(=O)NCC(=O)N[C@@H](Cc1ccc(O)cc1)C(=O)N[C@@H](CCCCN)C(=O)N[C@@H](CCCNC(=N)N)C(=O)N[C@@H](CCCCN)C(=O)N[C@@H](Cc1ccccc1)C(=O)N[C@@H](Cc1c[nH]cn1)C(=O)O | HPLC-UV | human saliva | 0.5 h, 37 °C, added: initial 1 mg/mL |  | peptide concentration | 0.982 mg/mL |
| COc1cccc(OC)c1-c1cc(C(=O)NC2(C(=O)O)C3CC4CC(C3)CC2C4)nn1-c1ccc(C(=O)N(C)CCOCCN(C)C(=O)[C@H](CCCCNC(=O)[C@H](CC(C)C)NC(=O)C2OC2C(=O)O)NC(=O)CN2CCN(CC(=O)[O-])CCN(CC(=O)[O-])CCN(CC(=O)[O-])CC2)cc1C(C)C.[177Lu+3] (mixture of isomers) |  | mouse, HT-29 xenograft | 72 h post injection, biodistribution | reference: tumour over liver uptake | tumour-to-liver ratio | 3.7 |
| CCCCN1C(=O)c2cccc3c(NCCCCN4CCOCC4)ccc(c23)C1=O |  | ethyl acetate |  |  | absorption maximum | 428 nm |
| CC1(C)C(=CC=C2CCCC(C=CC3=[N+](CCC[N+](C)(C)C)c4ccc(S(=O)(=O)O)cc4C3(C)C)=C2SCCOCCOCCC(=O)O)N(CCC[N+](C)(C)C)c2ccc(S(=O)(=O)O)cc21 |  | DMSO, PBS and FBS | across solvents tested |  | absorption maximum wavelength | 778 to 806 nm |
| [2H]C1([2H])CC[C@@H](C[C@@H](C#N)NC(=O)[C@@H]2[C@@H]3[C@H](CN2C(=O)[C@@H](NC(=O)C(F)(F)F)C(C)(C)C)C3(C)C)C(=O)N1 |  | human liver microsomes | microsomes 0.5 mg/mL |  | intrinsic clearance | 39 µL/min/mg |
| CCCCN1C(=O)c2cccc3c(NCCCCCN4CCOCC4)ccc(c23)C1=O |  | DMF |  |  | absorption maximum | 440 nm |
| O=C(Nc1cnccc1-c1ccc([18F])cc1)c1ccnc(NC(=O)C2CC2)c1 | PET imaging | FVB/NJ mice, both sexes, brain | intravenous, 60 min post-injection |  | median SUV | 0.16 |
| C=C(NC(=O)c1csc(-c2nc3c(cc2O)-c2nc(cs2)C(=O)NC(C(C)O)C(=O)NC(=C(C)OC)c2nc(cs2)C(=O)NC2c4nc(cs4)C(=O)NC(COC(=O)c4c5c6c(cccc6n4O)COC(=O)C(OC4CC(C)(O)C(N(C)C)C(C)O4)C2OC5)c2nc-3cs2)n1)C(N)=O (centres unmarked) |  | ICR mice, Streptococcus pneumoniae ATCC 49169 infected, immunocompromised, blood | intravenous, 2 mg/kg/day twice daily |  | MRT(0-t) | 2.86 h |
| CCCCN1C(=O)c2cccc3c(NCCCCCCCCN4CCOCC4)ccc(c23)C1=O |  | methanol |  |  | fluorescence lifetime | 8.4 ns |
| COC1C=COC2(C)Oc3c(C)c(O)c4c(c3C2=O)C2=NC3(CCN(CC(C)C)CC3)NC2=C(NC(=O)C(C)=CC=CC(C)C(O)C(C)C(O)C(C)C(OC(=O)Nc2cnccn2)C1C)C4=O (centres unmarked) |  | CD-1 mouse female, plasma | intravenous, 5 mg/kg |  | clearance | 2.2 mL/min/kg |
| C/C(N)=N/C(=N\S(=O)(=O)c1ccc(C(F)(F)F)cc1)N1C[C@H](c2ccccc2)C(c2ccc(Cl)cc2)=N1 |  | C57BL/6 mouse, heart | intravenous, 10 mg/kg |  | Tmax | 6 min |
| O=C(Nc1cnccc1-c1ccc([18F])nc1)c1ccnc(NC(=O)C2CC2)c1 | PET imaging | FVB/NJ mice, both sexes, liver | intravenous, 120 min, added: tariquidar 15 mg/kg iv, ≥2 h before |  | median SUV | 5.95 |
| Cc1nc(N)nc2c1C(=O)N[C@@H](c1ccc(F)cc1-c1cccc(O[11CH3])n1)C2 | ex vivo biodistribution | mice, MDA-MB-231 subcutaneous xenograft, urine | 60 min post-injection, baseline, vehicle pre-treatment |  | tracer uptake | 0.5 ± 0.1 %ID |
| CN1CCC[C@]1(C)/C=C/S(=O)(=O)NC(=O)Nc1c2c(cc3c1C(O)CC3)CCC2 (some centres unmarked) |  | human, plasma | oral, 50 mg twice daily of parent drug, metabolite of dosed drug | reference: day 14 over day 1 | AUC(0-tau) accumulation ratio | 1.8 |
| CN1C(=O)[C@@H](Cc2ccc(O)c(I)c2)NC(=O)CNC(=O)[C@H](Cc2ccc3ccccc3c2)NC(=O)[C@H](CCCNC(=N)N)NC(=O)[C@H]1CCCNC(=O)c1ccc(CNC(=O)CN2CCN(CC(=O)O)CCN(CC(=O)O)CCN(CC(=O)O)CC2)cc1 [lutetium-177 labelled] | 1 | human, extrapolated from mouse, Urinary bladder wall |  |  | total absorbed dose | 0.001 mGy/MBq |
| CCCCN1C(=O)c2cccc3c(NCCCN4CCOCC4)ccc(c23)C1=O |  | dioxane |  |  | fluorescence lifetime | 9.9 ns |
| O=CC1C(=O)Nc2ccccc21 (centres unmarked) | chemical stability, HPLC-MS | borate buffered saline | pH 10.2, no N-acetyl-lysine |  | degradation rate constant | 0 h⁻¹ |
| Cc1nc(N)nc2c1C(=O)N[C@@H](c1ccc(F)cc1-c1cccc(OCC[18F])n1)C2 | ex vivo biodistribution | C57BL/6 mice, spleen | intravenous, 30 min |  | uptake | 0.37 ± 0.05 %ID |
| C[C@H](CCC(=O)NCC(=O)O)[C@H]1CC[C@H]2[C@@H]3[C@H](O)C[C@@H]4C[C@H](OS(=O)(=O)O)CC[C@]4(C)[C@H]3CC[C@]12C |  | human, plasma | baseline |  | mean daily plasma concentration | 0.0821 ± 0.0155 µM |
| O=C(NS(=O)(=O)c1cccs1)c1cc2ccccc2n1Cc1ccc(Br)c2ccccc12 |  | Sprague-Dawley rat, male | intravenous, dose not given, 0.5 h |  | plasma concentration | 482 ng/mL |
| COc1cc(N2CCN(C(=O)C3CCCN3)CC2)ccc1Nc1ncc(Cl)c(Nc2ccccc2P(C)(C)=O)n1 (centres unmarked) |  | nude mice, NCI-H3122 xenograft | intraperitoneal, 10 mg/kg every other day, day 13 |  | body weight | 27.7 g and 24.5 g and 25.3 g and 26.1 g and 21.9 g |
| COc1cccc(OC)c1-c1cc(C(=O)NC2(C(=O)O)C3CC4CC(C3)CC2C4)nn1-c1ccc(C(=O)NCCNC(=O)[C@H](CCCCNC(=O)[C@H](CC(C)C)NC(=O)C2OC2C(=O)O)NC(=O)CN2CCN(CC(=O)[O-])CCN(CC(=O)[O-])CCN(CC(=O)[O-])CC2)cc1C(C)C.[177Lu+3] (mixture of isomers) |  | mouse, HT-29 xenograft | 168 h post injection, biodistribution | reference: tumour over liver uptake | tumour-to-liver ratio | 1.76 |
| Cc1c(Cc2cc(F)cc(OC(C)(C)C(=O)O)c2)c2ccc(C(=O)N[C@@H](C)c3cccc(C(C)(C)C)c3)cc2n1CC(C)C | metabolic stability | mouse, liver microsomes |  |  | half-life | > 1 h |
| CC(C)(O)c1ncc([S@](N)(=O)=NC(=O)Nc2c3c(cc4c2CCC4)CCC3)s1 | measured: all system organ classes | healthy human subjects | oral, 100 mg, total |  | share of subjects with TEAEs | 83% |
| CC(C(=O)O)n1nc(Cn2cc3cc(OCC[18F])c(Cl)cc3n2)c2ccccc2c1=O (racemic) |  | rat, muscle | 1 h |  | tracer uptake | 0.03 %ID/g |
| CC(C)(F)CC(NC(c1ccc(-c2ccc(S(C)(=O)=O)cc2)cc1)C(F)(F)F)C(=O)NCC#CBr (centres unmarked) |  | PBS | 100 µM, 23 h, pH 7.45, 37 °C, added: GSH 5 mM |  | GSH adduct formation | 47% |

Excerpt of the above:
| SMILES | assay | system | conditions | scale | quantity | result |
| --- | --- | --- | --- | --- | --- | --- |
| Cc1c(Cc2cc(F)cc(OC(C)(C)C(=O)O)c2)c2ccc(C(=O)N[C@@H](C)c3cccc(C(C)(C)C)c3)cc2n1CC(C)C | metabolic stability | mouse, liver microsomes |  |  | half-life | > 1 h |
| CC(C)(O)c1ncc([S@](N)(=O)=NC(=O)Nc2c3c(cc4c2CCC4)CCC3)s1 | measured: all system organ classes | healthy human subjects | oral, 100 mg, total |  | share of subjects with TEAEs | 83% |
| CC(C(=O)O)n1nc(Cn2cc3cc(OCC[18F])c(Cl)cc3n2)c2ccccc2c1=O (racemic) |  | rat, muscle | 1 h |  | tracer uptake | 0.03 %ID/g |
| CC(C)(F)CC(NC(c1ccc(-c2ccc(S(C)(=O)=O)cc2)cc1)C(F)(F)F)C(=O)NCC#CBr (centres unmarked) |  | PBS | 100 µM, 23 h, pH 7.45, 37 °C, added: GSH 5 mM |  | GSH adduct formation | 47% |
